Results pooled from the literature.
A part holds a random share of what one study measured. Substitutions count along the parent as printed.

Set 1
Target: CCNB1, cyclin fold, Cln2 fusion (human)
Technique: yeast growth competition, sequencing
Sample: yeast
Setting: weak parent motif
Relative to: not given
Reading: higher = stronger binding
Parent: CDKN1B docking peptide (human); PSACRNLFGPVDH
`A3L`: “normalised enrichment score” 1.31.
`R5A`: “normalised enrichment score” -0.24.
`N6G` — result for “normalised enrichment score”: 0.106.
`P10D` — result for “normalised enrichment score”: 0.925.
`R5K`: “normalised enrichment score” 0.0687.
`P10I`: “normalised enrichment score” 0.438.
`D12P` — result for “normalised enrichment score”: 0.444.
Under “normalised enrichment score”, `D12I` is recorded as 0.503.
`R5N`: “normalised enrichment score” 0.422.

Set 2
Target: RING finger protein unkempt homolog, zinc fingers 1-6, GST-SBP tag (UNK, Homo sapiens, UniProt Q9C0B0, residues 30-357)
Chain of UniProt Q9C0B0 (30-357, looked up): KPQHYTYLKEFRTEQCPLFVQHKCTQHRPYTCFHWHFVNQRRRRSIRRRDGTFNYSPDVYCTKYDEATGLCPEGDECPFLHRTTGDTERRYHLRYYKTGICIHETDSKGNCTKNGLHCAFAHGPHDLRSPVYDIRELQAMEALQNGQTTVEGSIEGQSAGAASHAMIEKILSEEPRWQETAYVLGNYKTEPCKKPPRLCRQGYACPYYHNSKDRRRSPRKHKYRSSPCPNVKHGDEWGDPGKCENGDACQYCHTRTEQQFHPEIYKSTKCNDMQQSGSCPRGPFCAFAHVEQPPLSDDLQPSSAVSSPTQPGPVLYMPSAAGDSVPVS
Technique: RNA Bind-n-Seq
Molecule type: RNA
Sample: in vitro
Concentration: not given
Setting: RNA with constant flanks, human-mouse chimeric sites, ends assumed
Relative to: input RNA pool
Reading: higher = stronger binding
For `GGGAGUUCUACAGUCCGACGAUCAGCACAACCCCAGCAAAGCUCAGGAACCCUUGCACAAGUGAACAAAACUGCACCAGCCCAUUUAGCUACAAAAAUGUGCUUAGUCUUACUGACAGAGGAGAGUUUUUCAAUGAACUUGUUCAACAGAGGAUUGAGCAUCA`, the bound/input enrichment was 1.45 ratio.
`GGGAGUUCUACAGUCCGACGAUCACUCAGAGAUCCACCUCCCAAAGUGCUGGGAGUAAAGGUGUGGCCACUCAAUUCUCCUUGAUGGAUAUAUAUUUUUUUUAAUAUGAAUCUUCCUGUUCGUCCAGGGAGCAAGAACGGGUUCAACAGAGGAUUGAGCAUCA` gave a bound/input enrichment of 0.365 ratio.
For `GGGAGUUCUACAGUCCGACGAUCAGCACAACCCCAGCAAAGCUAAGAAAUCCUUGCACAAGUGAACAAAACUGCACCAGCCCAUUUAGCUACAAAAAUGUGCUUAGUCUUACUGACAGAGGAGAGUUUUUCAAUGAACUUGUUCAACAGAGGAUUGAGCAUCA`, the bound/input enrichment was 0.958 ratio.
The bound/input enrichment of `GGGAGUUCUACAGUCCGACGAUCUUGGAAGGACCAGAGCCUAAUCAACUGAAACCAUUAGUCAUACAGGCUAUGCCCACCCUAAUAGAAUUAAUGAAAGACCCCAGUGUAGUUGUUCGAGACACAACAGCGUGGACUGUGGGCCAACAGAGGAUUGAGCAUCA` is reported as 1.82 ratio.
The bound/input enrichment of `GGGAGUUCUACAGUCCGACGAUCUUUCUACUGCAGCAAACGAUGCUAAGAAUUAAGGAUCCUAAGAAGUCCCUGGAUUUUUAUACUAGAGUUCUUGGAAUGACCCUCCUGCAGAAGCUUGACUUCCCUGCUAUGAAGUUCUCGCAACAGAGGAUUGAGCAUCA` is reported as 0.308 ratio.
`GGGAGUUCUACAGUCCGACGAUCUGGCGCCUGCGCUCCCCACUCGUGUUUUUAAGUGUAUUUUUAUAAGAUACAUGUAUUUACAAUUGAGCUUUUGUUACAUAAUGCUGAAAUGCUACUGCAAUAUUAUGAAAAUGUUUCAAUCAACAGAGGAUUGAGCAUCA` has a bound/input enrichment of 0.105 ratio.
The bound/input enrichment of `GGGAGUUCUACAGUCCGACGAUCGUGUCCUGCUUUCAACUUAAAUCACUGCAUUUUUACUACUGUUCUGUGAGCAUCAGGACUGUAGCGCUUGCCACCACCAUGAGAGUUCAGAAGCAGCCUUUCUGUGGAGGGUGGGAAUGACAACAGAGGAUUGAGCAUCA` is reported as 0.173 ratio.
With `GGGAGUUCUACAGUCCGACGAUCGUGUCCUUUCAACUUAAUAAAUCACUGAGGCAUCUCUACUGUUCUGUGAGCAUCAGGACUGUAGCGCUGUGUCACCACAUGAGAGUUGUUAAGCAGCCUUUCUGUGGAGGGUGGGAAUGACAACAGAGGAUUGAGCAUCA` the bound/input enrichment was 0.135 ratio.
The bound/input enrichment of `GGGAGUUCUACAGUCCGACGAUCGGGACUGAUUCAUCCCAAGGACAGGCCGCCCAGUCUGAUGCCUGGACUGAUGACAGUAUGGAAGGGCCUAGUCAAAAUGUUGAAGCUGAGUCAAUUCAGGAUGCCAUGCAUAUGGCAGAGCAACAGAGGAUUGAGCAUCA` is reported as 0.1 ratio.

Set 3
Target: Interferon regulatory factor 3, full length, phosphomimetic (IRF3, Homo sapiens, UniProt Q14653, residues 1-427, S386D/S396D/S398D/S402D/T404D/S405D)
Technique: protein-binding microarray
Molecule type: double-stranded DNA, one strand shown
Sample: in vitro
Concentration: 2540 nM top
Setting: 60-bp whole probe
With: salmon DNA 0.4 mg/ml
Relative to: random background probes
Reading: higher = stronger binding
Shared flanks, not repeated: GCCTAGCAC … GTCTTGATTCGCTTGACGCTGCTG
Target sequence (chain): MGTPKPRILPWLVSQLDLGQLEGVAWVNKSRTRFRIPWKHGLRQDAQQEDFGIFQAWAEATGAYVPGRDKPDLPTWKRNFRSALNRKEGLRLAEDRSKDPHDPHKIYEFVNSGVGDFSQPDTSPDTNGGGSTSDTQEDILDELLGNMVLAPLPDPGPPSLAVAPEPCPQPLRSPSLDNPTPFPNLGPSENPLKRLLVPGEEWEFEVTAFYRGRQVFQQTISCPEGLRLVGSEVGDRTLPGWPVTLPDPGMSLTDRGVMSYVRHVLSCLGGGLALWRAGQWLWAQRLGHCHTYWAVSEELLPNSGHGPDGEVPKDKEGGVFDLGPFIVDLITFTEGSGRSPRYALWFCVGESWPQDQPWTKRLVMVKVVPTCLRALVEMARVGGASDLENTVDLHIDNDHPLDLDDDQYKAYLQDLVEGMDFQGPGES
`TTAGGTTACCTTTTCCTTTAGTGCTAG` — result for “fitted relative affinity”: 7.54 z-score.
`TTACATTTTAATTTTATTTGGTGCTAG` — result for “fitted relative affinity”: 1.67 z-score.
`GCCTTTTTTTTTTTTTCTGAGTGCTAG`: “fitted relative affinity” 2.12 z-score.
`TTACATATCAGACTGGATTAGTGCTAG` — result for “fitted relative affinity”: 0.798 z-score.
`GACGGTCTCGTTCTCCTGACGTGCTAG`: “fitted relative affinity” 1.82 z-score.
Under “fitted relative affinity”, `TTAGGTTTCGATTCCGGTTAGTGCTAG` is recorded as 8.5 z-score.
Under “fitted relative affinity”, `GGGAGTGTCAATAATGACCACGTGCTA` is recorded as -0.052 z-score.
For `TTAGACCTGAGTCTCGATTAGTGCTAG`, “fitted relative affinity” read -0.544 z-score.

Single results of other studies
`PhoQ, residues 284 288 289 292 302 303 TSTLRA` gave a fold induction of 1.01 (PhoP, residues 12 14 15 18 19 LWHCS (Escherichia coli, UniProt P23836); Sort-seq, item: YFP reporter; E. coli; PhoQ-PhoP variant library, with: 10 µM Mg2+; relative to: high Mg2+ state, higher = stronger signaling).

Repeated from above (set 1):
`R5A`: “normalised enrichment score” -0.24.
`P10I`: “normalised enrichment score” 0.438.
